# Experimental data from different studies.
# Lines come from different studies, so protocols differ. “And” joins repeats or separate records; there may be more than shown. ± gives the spread as reported.
Compound,organism,assay,test system,setting,scale,measurement,result
C=C(NC(=O)c1csc(-c2nc3c(cc2O)-c2nc(cs2)C(=O)NC(C(C)O)C(=O)NC(=C(C)OC)c2nc(cs2)C(=O)NC2c4nc(cs4)C(=O)NC(COC(=O)c4c5c6c(cccc6n4O)COC(=O)C(OC4CC(C)(O)C(N(C)C)C(C)O4)C2OC5)c2nc-3cs2)n1)C(N)=O (centres unmarked),Streptococcus pyogenes,,10 isolates,pH 7.0,,MIC50,7.8 ng/mL
Cc1ccc(S(=O)(=O)n2cc3c4c2C(=O)C(NCCc2ccc(O)cc2)=CC4=NCC3)cc1,Babesia divergens,"parasite growth, SYBR Green",,"60 h, blood stage",,IC50,159 nM
CNCc1ccc2c(c1)C[C@H](CNC(=N)N)[C@H]2NC(=O)C(=O)Nc1ccc(Cl)c(F)c1,HIV-1,viral infection,"TZM-bl, CRF02_AG 235-47 Env pseudovirus",,,IC50,6640 nM
NCCOCCO.O=C(O)C(Cl)Cl,Amaranthus retroflexus,herbicidal activity,,"15 mg/mL, 21 days, post-emergence greenhouse",,inhibition,0%
COC1C=COC2(C)Oc3c(C)c(O)c4c(c3C2=O)C2=NC3(CCN(CC(C)C)CC3)NC2=C(NC(=O)C(C)=CC=CC(C)C(O)C(C)C(O)C(C)C(OC(=O)c2cccnc2)C1C)C4=O (centres unmarked),Mycobacteroides abscessus,"intracellular growth, visual read","THP-1 derived macrophages, ATCC 19977",,,IC90,340 nM
O=C(Oc1cc(OC(=O)c2cc(O)c(O)c(O)c2)c2ccccc2c1)c1cc(O)c(O)c(O)c1,herpes simplex virus 2,plaque,"333, BALB/c mice, genital herpes model, vaginal lavage","15 and 30 mg/kg/day, 4 days post infection",,viral load,decreased
Cc1nc2c(NCc3cccc(S(C)(=O)=O)c3)nccn2c1-c1ccc(O)c(F)c1,Rhinovirus B,"viral replication, high-content imaging",RV-B14,,,IC50,44 ± 26 nM
CNCc1ccc2c(c1)N(C(=O)OCc1c(F)c(F)c(F)c(F)c1F)[C@H](CNC(=N)N)[C@H]2NC(=O)C(=O)Nc1ccc(Cl)c(F)c1,HIV-1,"pseudovirus infection, Env pseudovirus neutralisation","TZM-bl, clade B",,,IC80,112 nM
C=C[C@]1(C)C[C@@H](OC(=O)CSc2ccc(NC(=O)c3ccco3)cc2)[C@]2(C)[C@H](C)CC[C@]3(CCC(=O)[C@H]32)[C@@H](C)[C@@H]1O,Mycoplasma gallisepticum,,infected chickens,"intramuscular, 50 mg/kg daily x3, scale 0 to 4",direction not given,air sac lesion score,1 and 2 and 0 and 3
COC1C=COC2(C)Oc3c(C)c(O)c4c(c3C2=O)C2=NC3(CCN(CC(C)C)CC3)NC2=C(NC(=O)C(C)=CC=CC(C)C(O)C(C)C(O)C(C)C(OC(=O)Nc2cscn2)C1C)C4=O (centres unmarked),Mycobacteroides abscessus,,"ATCC 19977, caseum surrogate","5 d, non-replicating",,MBC,0.5 µM
Cc1c(CN(C)C(=O)/C=C/c2cnc3c(c2)CC(N)C(=O)N3)oc2ccccc12 (centres unmarked),Klebsiella pneumoniae,broth microdilution,AR-0548,,,MIC,32 µg/mL
C[N+](C)(C)CCO.O=C([O-])C(Cl)Cl,Eclipta prostrata,,,"15 mg/mL, 21 days, pre-emergence, greenhouse",,herbicidal inhibition,0%
O=C1C(=O)c2[nH]cc3c2C(=C1Cl)NCC3,Babesia divergens,"parasite growth, SYBR Green",,"60 h, blood stage",,IC50,3700 nM
CC1(F)CN(C(=O)Cn2c(=O)c(C(=O)NCc3ccc(Cl)cc3)cc3nc(N4CCN(CCN)C4=O)cnc32)C1,herpes simplex virus 2,viral cytopathic effect,"Vero, G",120 h,,EC50,760 nM
CCOC(=O)/C=C/[C@H](C[C@@H]1CCNC1=O)NC(=O)[C@@H](CC(=O)[C@@H](NC(=O)c1cc(C)on1)C(C)C)Cc1ccc(F)cc1,Rhinovirus B,"viral replication, high-content imaging",RV-B14,,,IC50,6 ± 2 nM
CC(O)CNCC(C)O.O=C(O)C(Cl)Cl (centres unmarked),Amaranthus retroflexus,herbicidal activity,,"15 mg/mL, 21 days, post-emergence greenhouse",,inhibition,0%
Cc1cccc2c1N(C(=O)n1ccnn1)CC2,Arabidopsis thaliana,,"kai2 mutant, seeds",3 µM,,germination rate,16.7% and 40% and 10% and 34.6% and 15% and 19.4%
FC(F)(F)c1cccc(CNc2nc(NC3CCN(Cc4ccccc4)CC3)c3nc[nH]c3n2)c1,Cryptococcus neoformans,"RNA-seq, item: CNAG_02375",wild type,"48 µg/mL, 3 h",reference: untreated wild type,log2 fold change,0.486
CN(Cc1ccc(C2(C(F)(F)F)CCC2)cc1)Cc1cccc2ccccc12,Trichophyton rubrum,"microbial growth, disc diffusion",ATCC28188,"0.004 µg/mL, 6 days",,inhibition zone,15.5 mm
CCCCCCCCCC(=O)N[C@@H](Cc1c[nH]c2ccccc12)C(=O)N[C@H](CC(N)=O)C(=O)N[C@@H](CC(=O)O)C(=O)N[C@@H]1C(=O)NCC(=O)N[C@@H](CCCNC(=O)OC2/C=C/CCCCC2)C(=O)N[C@@H](CC(=O)O)C(=O)N[C@H](C)C(=O)N[C@@H](CC(=O)O)C(=O)NCC(=O)N[C@H](CO)C(=O)N[C@@H]([C@H](C)CC(=O)O)C(=O)N[C@@H](CC(=O)c2ccccc2N)C(=O)O[C@@H]1C (some centres unmarked),Staphylococcus aureus,"planktonic bacterial growth, isothermal microcalorimetry",MRSA,"3.0 µg/mL, 24 h, 37 °C, added: TAG hydrogel",,peak heat flow time,0 h
C[C@@H]1C(=O)O[C@@H](C)/C=C/C=C\[C@@H](C)[C@@H]2C=C[C@@H]3C[C@@]4(C)O[C@H]4[C@@H](C)[C@H]3[C@@H]2C(=O)C(Cl)(Cl)C1=O,Staphylococcus aureus,,MSSA clinical isolate,"resistant: CIP,DAP,ERY,MXF",,MIC,0.0125 µg/mL
O=C1C(NCCc2ccc(O)c(Br)c2)=CC2=NCCc3c[nH]c1c32,Babesia divergens,"parasite growth, SYBR Green",,"60 h, blood stage",,IC50,435 nM
COC1C=COC2(C)Oc3c(C)c(O)c4c(c3C2=O)C2=NC3(CCN(CC(C)C)CC3)NC2=C(NC(=O)C(C)=CC=CC(C)C(O)C(C)C(O)C(C)C(OC(=O)Nc2cnccn2)C1C)C4=O (centres unmarked),Mycobacteroides abscessus,bacterial growth,subsp. massiliense 095 clinical isolate,mixed morphotype,,IC90,744 nM
